Measurements from different studies.
A part holds a random share of what one study measured.

Sample 1
Target: Sal-like protein 4, full length isoform B (SALL4, Homo sapiens, UniProt Q9UJQ4-2, residues 1-616)
Technique: universal PBM
Molecule type: double-stranded DNA, one strand shown
Matrix: in vitro
Concentration: not given
Setting: 8-mer, flanks averaged, mean of replicates
Direction: higher = stronger binding
Construct (chain): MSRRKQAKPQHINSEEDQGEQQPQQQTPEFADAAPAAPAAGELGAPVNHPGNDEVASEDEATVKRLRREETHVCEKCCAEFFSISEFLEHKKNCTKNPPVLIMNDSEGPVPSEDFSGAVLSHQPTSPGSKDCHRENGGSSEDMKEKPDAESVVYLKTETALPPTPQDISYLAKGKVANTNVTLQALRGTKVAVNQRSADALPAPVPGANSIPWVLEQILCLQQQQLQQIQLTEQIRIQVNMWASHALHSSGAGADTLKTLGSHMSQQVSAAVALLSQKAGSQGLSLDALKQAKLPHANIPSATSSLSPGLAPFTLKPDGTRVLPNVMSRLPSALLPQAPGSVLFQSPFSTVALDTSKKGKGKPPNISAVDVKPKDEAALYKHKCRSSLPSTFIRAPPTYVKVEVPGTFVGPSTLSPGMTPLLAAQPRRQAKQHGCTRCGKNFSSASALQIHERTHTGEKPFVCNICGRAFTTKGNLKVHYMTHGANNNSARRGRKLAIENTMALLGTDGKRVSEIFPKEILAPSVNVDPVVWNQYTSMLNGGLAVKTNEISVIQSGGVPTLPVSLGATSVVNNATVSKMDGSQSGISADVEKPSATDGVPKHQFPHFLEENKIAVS
Strand | E-score
GACAATCA | 0.0565
ACGGTTAC | 0.0581
CGCTCCCC | -0.378
AAAAGGCC | -0.126
GCGCTCCC | -0.256
AGACGCCT | -0.185
CAGTTAAG | 0.0221
AAATTAAG | 0.265
AGAATTCA | 0.104
GACGCGGA | -0.258
AGAGCATC | -0.0858
GAGTGTTA | 0.133
AACGTGCC | -0.197
CACACGTA | -0.0868
AAGGCGAG | -0.215
AAGGATGG | 0.0257
CGACGCCA | -0.204
CCAACCAC | 0.00686

Sample 2
Target: Centromere-binding protein 1, full length, N-terminal tag (CBF1, Saccharomyces cerevisiae, UniProt P17106, residues 1-351)
Sequence of UniProt P17106 (whole entry, looked up): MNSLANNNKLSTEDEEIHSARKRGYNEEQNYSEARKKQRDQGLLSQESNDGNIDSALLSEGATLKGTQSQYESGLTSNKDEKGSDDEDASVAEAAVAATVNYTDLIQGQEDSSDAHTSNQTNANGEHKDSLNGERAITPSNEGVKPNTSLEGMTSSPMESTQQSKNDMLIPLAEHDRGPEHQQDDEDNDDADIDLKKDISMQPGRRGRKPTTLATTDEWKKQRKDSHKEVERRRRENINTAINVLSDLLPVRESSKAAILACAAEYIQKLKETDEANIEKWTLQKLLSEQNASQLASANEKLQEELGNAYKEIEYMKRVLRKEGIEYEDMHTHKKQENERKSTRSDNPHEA
Technique: protein-binding microarray
Molecule type: double-stranded DNA, one strand shown
Matrix: in vitro
Concentration: 0.8 µM
Setting: whole 60-bp probe, no competitor
Direction: higher = stronger binding
All sequences stand within: … GTCTTGATTCGCTTGACGCTGCTG
Strand | fluorescence intensity
CCTAACTACTATAGTCACCTGCGATAGCTTCGTACA | 834 a.u.
CTAGCTTAGCATCCACACGTCACAATCTCGGGTTTC | 531 a.u.
GAACTTCGCTCAAGTCACGAAAGCACATCTTACTAG | 536 a.u.
GAAATTCGTACGTCCCATGTGCTCGGTCATACTTAG | 621 a.u.
TGTACGAAGCTATATCACCCGAATATAGTAGTTAGG | 516 a.u.
CTAAAAGCGGCCAATCACGCCCGAAGACGGGACTTC | 530 a.u.
CTAACCACGTTTCGTCACCGGTCATAATTGGAATTC | 569 a.u.
GAAAGATCCAATCATCACCATTGCGCGATCAAATAG | 516 a.u.
CTATACTGATTTTTTCATATGATAAGTGGATATTTC | 530 a.u.
CTAATGAATGAGAACCTCATGATTGTAAACGAGTTC | 493 a.u.
GAAAAAGTTGCTTATTTCATGACGGACAGATTTTAG | 525 a.u.
GAACGAATGAGGTAGCATGTGAAAACGCGGGAGTAG | 602 a.u.
GAAGCCGCTTCGAGGCGGGTGAGCATAGGTTATTAG | 510 a.u.
GAATTTTCATGATGACTGGTGACTGTTTCTCAATAG | 554 a.u.
GAACTACGGATGCCTCGCGTCACCATCCGCTGGTAG | 482 a.u.
TGTACGAAGCTATCGCGCATGACTATAGTAGTTAGG | 586 a.u.

Sample 3
Target: RNA binding protein fox-1 homolog 2, RRM domain, GST-SBP tag (RBFOX2, Homo sapiens, UniProt O43251-10, residues 100-194)
Technique: RNA Bind-n-Seq
Molecule type: RNA
Matrix: in vitro
Concentration: 365 nM
Setting: natural RNA segment, single round, ends assumed
Relative to: no-protein control
Direction: higher = stronger binding
All sequences stand within: GGGAGUUCUACAGUCCGACGAUC … UGGAAUUCUCGGGUGCCAA
Residues (chain): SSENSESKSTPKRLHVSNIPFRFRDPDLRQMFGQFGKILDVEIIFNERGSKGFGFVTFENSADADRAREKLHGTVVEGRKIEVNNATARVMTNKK
Strand | RBNS enrichment (R)
UCUGCACAGUGCAGGAGACUUUAUUCCUUUGGAAAAUUCACUGUUCCACAAACAGCAGGCUGAAUGGCCUCGCCUCUAGAUUGACGUGGGCCAGCCUCCUUGAGACACAC | 0.333
UGUGGCUGCCGCGGAGUGUGCCCUGGCCCUGGGCACUGAAGUGUUACAGUGGCUCGUUGCUUCCCUCACUCUGCCCUUGUUAAUAGAAAUUCUCACAGGCCAGGCUCUGU | 0.317
CCCUCCGUGGCCUCCCGUGAGUGCAUGCCUGUAGUGCACAGUGUCUCUACAGGUGUCUUCUGGGGGGCAGAACCAAUUGGAAGGAAGAAAGGGACCCCUCUCCAGUCCUG | 0.34
AGUUUAAGCAGAAGGGUUUUGUUUCUAUUGUAAGUUAGGUUCUAAAAGUGUAUAAUCUGAUACUCUAGCCCAACUGAAAUAUUAUAUCUUGGGCGUUACAGCCUUUGUCU | 0.306
AACAAGUAAAUAUAUAUGGUCAUAUACAUAUUGUAUAUAUAUUCAUAUACAAACAUGUAUGUAUACAUGACCUUAAUGGAUCAUAGAAUUGCAGUCAUUUGGUGCUCUGC | 0.382
GUGUAUAUUGGUGUAUAUUAUAUAACUCUUUGAGCCUUUAUUGGUAAAUUCUGGUAUACAUUGAAUUCAUUAUAAUUUGGGUGACUAGAACAACUUGAAGAUUGUAGCAA | 0.528
CUUAAGGUCAGAACUUUUACAGACAACAAACAACCCUAGGGUUUCUUUUUCCAGUUUACACAGACCGGUCCCCACAGUGCAGAAUCCAUUUCUCUUUCGUCUCAACAGUA | 0.656
AAACGGAGCAUGCGUGUAGCGAGCCUGCCUUGCUCUGCCUCUGCACGGACCGCUCCCUCUCUUCUUCAGGAGACUUUAUAAUUUACCUGAAGAGGUUUUCUUGAUAAUUU | 0.542
GAAGCCCUGGCUGCCAUCCCAGGAGCCCUGGCUGUGAACCUGGGAGUCCUAGGUAUGAACCCAAAAGCCCUGGGUACGGUUCAAAGAGCCCCGAAUUUGAAUCUCAAAGU | 0.358
AAUUUAGUUUGGGUGUUCCUCAUCACAUGUAUAUACGGACUAUCCAUUGAACUUAAUCUGUGUGGCUUCCAGCCCUCCCUUUACCAAAAGGGUCAAUGGACCUUUCUUUG | 0.33
CUCACCUACCUCCUGGAGCAUGUGCUGCUGCCCAGCUGAGCGGCUGCCGCCCCACCCUGUGCUCUCCGGAUCCCACUAGCCACAGGCAUCUCCAGGAGGGCCCGGGGCUC | 0.462
UUGGACUGAGUGGGUACGGCCAGCCACUCAGCCCAUUGGCAGCUGACAACGCAGACACGCUCUACGGAGGCCUGCUGAUAAAGGGCUCAGCCUUGCCGUGUGCUGCUUCU | 0.288

Further values, each from its own experiment
Molecule | target | test | system | conditions | scale | quantity | value
PhoQ, residues 284 288 289 292 302 303 AMDMFI | PhoP, residues 12 14 15 18 19 LHATL (Escherichia coli, UniProt P23836) | Sort-seq, refers to: YFP reporter | E. coli | PhoQ-PhoP variant library, with: 10 µM Mg2+ | relative to: high Mg2+ state, higher = stronger signaling | fold induction | 0.625

Excerpt of the above (sample 3):
Strand | RBNS enrichment (R)
AGUUUAAGCAGAAGGGUUUUGUUUCUAUUGUAAGUUAGGUUCUAAAAGUGUAUAAUCUGAUACUCUAGCCCAACUGAAAUAUUAUAUCUUGGGCGUUACAGCCUUUGUCU | 0.306
AACAAGUAAAUAUAUAUGGUCAUAUACAUAUUGUAUAUAUAUUCAUAUACAAACAUGUAUGUAUACAUGACCUUAAUGGAUCAUAGAAUUGCAGUCAUUUGGUGCUCUGC | 0.382
GUGUAUAUUGGUGUAUAUUAUAUAACUCUUUGAGCCUUUAUUGGUAAAUUCUGGUAUACAUUGAAUUCAUUAUAAUUUGGGUGACUAGAACAACUUGAAGAUUGUAGCAA | 0.528
CUUAAGGUCAGAACUUUUACAGACAACAAACAACCCUAGGGUUUCUUUUUCCAGUUUACACAGACCGGUCCCCACAGUGCAGAAUCCAUUUCUCUUUCGUCUCAACAGUA | 0.656
AAACGGAGCAUGCGUGUAGCGAGCCUGCCUUGCUCUGCCUCUGCACGGACCGCUCCCUCUCUUCUUCAGGAGACUUUAUAAUUUACCUGAAGAGGUUUUCUUGAUAAUUU | 0.542
